{"data": "Results gathered from unrelated publications", "cell line": "CCRF-CEM", "note": "Protocols differ between the studies behind these lines. pEC50, pIC50: −log10 of the molar value."}
{"Compound": "COc1cc(CNC(=O)C[C@H](C)CCC=C(C)C)ccc1OCc1cn(-c2ccc(F)cc2)nn1", "assay": "SRB", "setting": "10 µM, 48 h", "endpoint": "growth", "value": "84%"}
{"Compound": "CC/C=C\\C/C=C\\C/C=C\\C/C=C\\C/C=C\\C/C=C\\CCC(=O)Nc1ccn(C2OC(CO)C(O)C2(F)F)c(=O)n1 (stereo not shown)", "assay": "cell growth or viability, SRB", "endpoint": "GI50", "value": "0.0507 µM"}
{"Compound": "CCOc1ccccc1-c1nnc2n1N=C(c1ccc(NC3CCC3)cc1)CS2", "assay": "cell migration, Transwell migration", "endpoint": "pEC50", "value": 6.70}
{"Compound": "COc1cc(CNC(=O)C[C@H](C)CCC=C(C)C)ccc1OCc1cn(-c2ccc([N+](=O)[O-])cc2)nn1", "assay": "SRB", "setting": "10 µM, 48 h", "endpoint": "growth", "value": "81.1%"}
{"Compound": "O=c1[nH]c(=O)n([C@@H]2O[C@H](CO)[C@@H](O)[C@H](F)[C@H]2O)cc1F", "assay": "cell growth or viability", "endpoint": "pIC50", "value": "< 3.70"}
{"Compound": "COc1ccc(C2=Nn3c(NN=C4C(=O)N(C)c5ccc(Br)cc54)nnc3SC2)cc1", "assay": "cell growth or viability, SRB", "setting": "10 µM", "endpoint": "inhibition", "value": "18%"}
{"Compound": "COc1cc(CNC(=O)C[C@H](C)CCC=C(C)C)ccc1OCc1cn(-c2ccccc2[N+](=O)[O-])nn1", "assay": "SRB", "setting": "10 µM, 48 h", "endpoint": "growth", "value": "36.5%"}
{"Compound": "CCC(=C(c1ccc(Cl)cc1)c1ccc(OCCCN(C)C)cc1)c1ccc(OC)cc1", "assay": "cell growth or viability", "endpoint": "GI50", "value": "1.7 µM"}
{"Compound": "C(=C/c1ccccc1)/c1ccccc1", "assay": "caspase-3 activity, flow cytometry", "setting": "24 h", "endpoint": "pEC50", "value": "< 4.30"}
{"Compound": "CC(=O)OC[C@H]1O[C@@H](Sc2sc(C(=O)c3ccc(C)cc3)c(N)c2-c2nc3ccccc3s2)[C@H](OC(C)=O)[C@@H](OC(C)=O)[C@H]1OC(C)=O", "assay": "SRB", "setting": "10 µM, 48 h", "endpoint": "growth", "value": "79.5%"}
{"Compound": "CCOc1ccccc1-c1nnc2n1N=C(c1ccc(NCC(=O)O)cc1)CS2", "assay": "cell migration, Transwell migration", "endpoint": "pEC50", "value": 6.49}
{"Compound": "O=c1ccn([C@@H]2O[C@H](CSSc3ccccn3)[C@@H](O)[C@H](F)[C@H]2O)c(=O)[nH]1", "assay": "cell growth or viability", "endpoint": "pIC50", "value": 5.04}
{"Compound": "COc1cc(CNC(=O)C[C@H](C)CCC=C(C)C)ccc1OCc1cn(-c2ccc(Cl)cc2Cl)nn1", "assay": "SRB", "setting": "10 µM, 48 h", "endpoint": "growth", "value": "116%"}
{"Compound": "CC(=O)OC[C@H]1O[C@@H](Sc2sc(C(=O)c3ccc(Br)cc3)c(N)c2-c2nc3ccccc3s2)[C@H](OC(C)=O)[C@@H](OC(C)=O)[C@H]1OC(C)=O", "assay": "SRB", "setting": "10 µM, 48 h", "endpoint": "growth", "value": "85.5%"}
{"Compound": "COc1cc(CNC(=O)C[C@H](C)CCC=C(C)C)ccc1OCc1cn(-c2ccc(C#N)cc2)nn1", "assay": "SRB", "setting": "10 µM, 48 h", "endpoint": "growth", "value": "58.4%"}
{"Compound": "Cc1cn([C@@H]2O[C@H](CO)[C@@H](O)[C@H](F)[C@H]2O)c(=O)[nH]c1=O", "assay": "cell growth or viability", "endpoint": "pIC50", "value": "< 3.70"}
{"note": "Excerpt of the above:"}
{"Compound": "CC(=O)OC[C@H]1O[C@@H](Sc2sc(C(=O)c3ccc(C)cc3)c(N)c2-c2nc3ccccc3s2)[C@H](OC(C)=O)[C@@H](OC(C)=O)[C@H]1OC(C)=O", "assay": "SRB", "setting": "10 µM, 48 h", "endpoint": "growth", "value": "79.5%"}
